Experimental data gathered from unrelated publications.
Numbered parts are unrelated; each lists some results of a single study. Substitutions count along the parent as printed.

Study 1
Target: Sal-like protein 4, full length isoform B (SALL4, Homo sapiens, UniProt Q9UJQ4-2, residues 1-616)
Technique: universal PBM
Molecule type: double-stranded DNA, one strand shown
Sample: in vitro
Tested at: not given
Notes: 8-mer, flanks averaged, mean of replicates
Direction: higher = stronger binding
Measurement: E-score
Oligonucleotide = CTACGAGA; value = -0.0682
Oligonucleotide = CCGTCAGA; value = -0.196
Oligonucleotide = GCTTTATA; value = 0.13
Oligonucleotide = CCGCGACA; value = -0.248
Oligonucleotide = ACCCAGGC; value = -0.306
Oligonucleotide = CCACCGGG; value = -0.372
Oligonucleotide = CAGCACAC; value = -0.186
Oligonucleotide = GGTCCTAA; value = 0.0241

Study 2
Target: Histone acetyltransferase KAT6A, both winged helices, GST fusion (KAT6A, Homo sapiens, UniProt Q92794, residues 1-181)
Technique: protein binding microarray
Molecule type: double-stranded DNA, one strand shown
Sample: in vitro
Tested at: not given
Notes: 8-mer, flanks averaged, mean of 2 arrays, mostly near background
Relative to: not given
Direction: higher = stronger binding
Measurement: E-score
Target sequence (chain): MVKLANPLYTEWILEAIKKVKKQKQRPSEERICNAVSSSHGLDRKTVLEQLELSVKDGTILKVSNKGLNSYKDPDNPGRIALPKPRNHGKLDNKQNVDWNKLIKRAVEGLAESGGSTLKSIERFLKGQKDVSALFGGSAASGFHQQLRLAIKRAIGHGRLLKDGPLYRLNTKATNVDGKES
Oligonucleotide = GCGTGCAC; value = 0.0643
Oligonucleotide = GGCAAGCC; value = -0.0269
Oligonucleotide = AGATAGTG; value = -0.0824
Oligonucleotide = AATCTTTG; value = -0.219
Oligonucleotide = ATACACCA; value = -0.0932
Oligonucleotide = ACTCGACC; value = -0.0691
Oligonucleotide = GGTCCGGA; value = 0.146
Oligonucleotide = ACACTACT; value = -0.206

Study 3
Target: RING finger protein unkempt homolog, zinc fingers 1-6, GST-SBP tag (UNK, Homo sapiens, UniProt Q9C0B0, residues 30-357)
UniProt Q9C0B0, sequence (30-357, looked up): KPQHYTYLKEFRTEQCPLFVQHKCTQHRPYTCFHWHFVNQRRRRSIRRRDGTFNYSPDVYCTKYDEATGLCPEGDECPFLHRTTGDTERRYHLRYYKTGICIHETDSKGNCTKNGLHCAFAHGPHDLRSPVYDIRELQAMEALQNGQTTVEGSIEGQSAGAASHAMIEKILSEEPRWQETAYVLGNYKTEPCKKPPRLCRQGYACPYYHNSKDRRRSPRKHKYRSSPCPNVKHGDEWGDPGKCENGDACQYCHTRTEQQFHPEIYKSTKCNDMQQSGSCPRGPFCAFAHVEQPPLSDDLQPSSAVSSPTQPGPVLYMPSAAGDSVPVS
Technique: RNA Bind-n-Seq
Molecule type: RNA
Sample: in vitro
Tested at: not given
Notes: RNA with constant flanks, human and mouse sites, ends assumed
Relative to: input RNA pool
Direction: higher = stronger binding
Measurement: bound/input enrichment
Constant ends, left off below: GGGAGUUCUACAGUCCGACGAUC … CAACAGAGGAUUGAGCAUCA
Oligonucleotide = UCUAACAUUAGCCUUGUCUUUGAUUUUAUGGAAACUGACCUCGAGGUUAUUAUAAAGGAUAACAGCCUUGUGCUGACACCAUCCCACAUUAAAGCCUACAUGUUGAUGACUCUUCAGGGC; value = 0.266 ratio
Oligonucleotide = GAACAAGACAAUGGUGGCACCACAGAAUCUGUCAAAGAACAAGAAAUGAAGUGGACAGACUUAGCCUUACAGUACCUCCAUGAGAAUGUUCCCCCCAUUGGAAACUGACGCUUGGCUCCU; value = 0.194 ratio
Oligonucleotide = CUCUUGGAGAAGUUAUAUAAGGUAAAUCUUAAAGUGAAGCAUGUGGAAUAUGAUACAUUUUACAUUCCUGAGAUUUCCAAUCUCGUGGACAUUCAGGAAGACUACCUCAUGUGGUUCUUG; value = 0.116 ratio
Oligonucleotide = CCAUGGGGGUCUUGCUUAUGUGUGUCACCAGAGAGUGGAAGAGCUCAAAGGCCAUAACCCUUUACCUUCUCCAUGGAGGGACAGGCCUAAGGAAGAAUCAUUGCUGCUCUUUGAGGCAAU; value = 0.171 ratio
Oligonucleotide = AUACAAGAUGCUCUAGGCAACUGUAUUGAUAUCAAUGAGUGUUUGAGUAUCAGUGCCCCGUGCCCUAUCGGGCAUACAUGCAUCAACACAGAGGGCUCCUACACGUGCCAGAAGAACGUG; value = 0.126 ratio
Oligonucleotide = AAAGAUGGCACAUCUUGUCUGACUCAACAGUUUUCCAUUCAUGCUGCUUUAUCAGAGCUCAGAAAGAUGGCCUCAGACAGUUUUCAUAAAUGUCAAAGAGGCACAGGACUUCCCAGGCUG; value = 0.112 ratio
Oligonucleotide = CUCUUUUAGGGUUGUCUUUUUACAAACCAUGACUUUCCACUUGCCUGUAGUUUUUUGUUUGUUUUGGUUUGGUUUGAUUUUAUAUUUUUUUCUCCUAAUCUAUGACUUUAUUGUUUUUUC; value = 6.34 ratio
Oligonucleotide = GAUGGUGCUGUCUUCUUUAACAAAGAAAGAACGAGGAAUAUUGUGAAAUUUGACUUGAGGACUAGAAUUAAGAGUGGCGAGGCCAUAAUUAACUAUGCCAACUACCAUGAUACCUCACCA; value = 0.125 ratio

Study 4
Target: CCND3, cyclin fold, Cln2 fusion (human)
Technique: yeast growth competition, sequencing
Sample: yeast
Notes: weak parent motif
Relative to: not given
Direction: higher = stronger binding
Measurement: normalised enrichment score
Starting sequence: viral docking peptide; KGVKRKLFAEDSS
Change = L7Y; value = 0.147
Change = R5Q; value = 0.0753
Change = F8D; value = -0.168

Study 5
Target: HLA class I histocompatibility antigen, A alpha chain, allele A*25:01 (Homo sapiens, UniProt P04439)
Effect on: peptide-MHC binding
Molecule type: peptide
Tested at: concentration not given
Measurement: binding
Sequence = SMHYKLDEV; value = inactive
Sequence = SAYYLDIGF; value = inactive
Sequence = NLFDWMHFL; value = inactive
Sequence = DMYFCHFYK; value = inactive
Sequence = VLLISDPGL; value = inactive
Sequence = MVRVLTVIKEY; value = inactive
Sequence = KLKSVGKAY; value = inactive
Sequence = YDRLASTVI; value = inactive
Sequence = VILYFMYRK; value = inactive
Sequence = RTFSILNRK; value = inactive
Sequence = AARHKHQVM; value = inactive
Sequence = TFVPIAWAAAY; value = inactive
Sequence = RQSSGSSSSGF; value = inactive
Sequence = ETESATLFT; value = inactive
Sequence = YLQAKSQVL; value = inactive
Sequence = GRYNLISPK; value = inactive
Sequence = MTQNISNDK; value = inactive
Sequence = FRYKSRCYV; value = inactive
Sequence = RYEFTAPFI; value = inactive
Sequence = DTVNRTHQY; value = active
Sequence = FMDPGIFPR; value = inactive
Sequence = SIYYTLVRM; value = inactive
Sequence = YMKFFGNFK; value = inactive
Sequence = NVMDPMHGA; value = inactive
Sequence = NMVADLWHA; value = inactive

Further values, each from its own experiment
B1: ARF14 497-605 (Arabidopsis thaliana, UniProt Q9LQE8); chain SPTEIQSKQFSSTRTCTKVQMQGVTIGRAVDLSVLNGYDQLILELEKLFDLKGQLQARNQWEIAFTNNEEDKMLVGEDPWPEFCNMVKKIFIYSKEEVKNLKSRKSLSS
Sequence = B1 (ARF14 497-605); partner = ARF22 498-598 (Arabidopsis thaliana, UniProt Q9C8N7); technique = two-hybrid; relative to = out of 2 tests; direction = higher = firmer interaction; measurement = positive tests; value = 0

Some of these lines once more (study 2):
Oligonucleotide = GGTCCGGA; value = 0.146
Oligonucleotide = AATCTTTG; value = -0.219
Oligonucleotide = AGATAGTG; value = -0.0824
